# Measured values pooled from the literature.
# Protocols differ between the studies behind these lines. “And” joins repeats or separate records; there may be more than shown. ± marks the error that the study gave.
SMILES,cell line,test,setting,scale,quantity,result
C=CCn1c(=O)c2cnc(Nc3ccc(N4CCN(C)CC4)cc3)nc2n1-c1ccc2c(n1)[C@@](O)(CC)CC2,NCI-H1048,flow cytometry,concentration not given,,G2/M phase cells,45.1%
O=C(O)C[C@H](O)C[C@H](O)/C=C/c1c(C2CC2)nc2ccccc2c1-c1ccc(F)cc1,BT-16,"cell viability, MTT","10 µM, 72 h",,inhibition,93.6%
C=CC(=O)N1[C@@H](c2ccc3c(c2)OCO3)c2[nH]c3ccccc3c2C[C@H]1C(=O)NC,rat DRG neurons,,"0.01372 µM, 48 h, together with: vincristine 40 nM",,neuron degeneration,80.1% and 79.1%
Cn1cc(-n2cnc3c(NCc4nc5cc(Cl)c(Cl)cc5[nH]4)nc(N4CCOCC4)nc32)cn1,MDA-MB-231,"cell viability, CellCounting-Lite","74.07 nM, 37 °C",higher = more viable cells,luminescence signal,106000 a.u. and 113000 a.u. and 95500 a.u.
Cn1cc(-c2ccc(-c3cncc(Cl)c3N3CCC4(CCNC4=O)CC3)cc2)cn1,COLO 205,"microarray, measured: CDKN1A","concentration not given, 2 h, gene set p21",baseline: untreated cells,fold change in expression,1.51
CC1(C)Oc2ccc(CC3=C(c4ccc(O)cc4)C(=O)NC3=O)cc2C[C@@H]1O,RPTEC,qPCR,"10 µg/mL, 24 h, basal, no LPS",baseline: untreated,IL-6 mRNA level,no effect
C#Cc1cccc(Nc2ncnc3cc(OC)c(OCCCCCCC(=O)NO)cc23)c1,BT-16,"cell viability, MTT","10 µM, 72 h",,inhibition,90.1%
COc1cnc2cccc(N3CCc4c(cc(Cn5ccnc5C)cc4-c4cn(C)nc4C(F)(F)F)C3=O)c2c1,MSTO-211H,"cell growth, inhibitor",120 h,,EC50,> 30 µM
C[C@H](Nc1ccc2c(c1)OCCn1cc(N3C(=O)OC[C@H]3C(F)F)nc1-2)C(N)=O,CAL-51,"cell growth, CellTiter-Glo",120 h,,Hill coefficient GR curve,0.684
CCn1c(=O)c(-c2cc[nH]n2)cc2c(C)nc(N)nc21,RD,"measured: ISG20, IFIT1, OAS2, OAS3, MX1","concentration not given, 22 h, 37 °C",,ISG expression,increased
O=C(C[C@@H](C(F)F)n1ccc(F)n1)N1CCC(O)(Cn2cnc3c(cnn3-c3ccc(F)cc3)c2=O)CC1,CHP-212 parental,PI flow cytometry,"0.3 µM, 24 h",,G1 phase cells,71.7%
CCn1cc(-c2cc(Cn3ccoc3=N)cc3c2CCN([C@@H](C)c2cc(OC)ccn2)C3=O)c(C(F)(F)F)n1,ZR-75-1,"cell growth, inhibitor",120 h,,EC50,6.77 µM
CC/C(=N\NC(=O)NCc1cccc(O)c1)c1ccc(O)c(C)c1O,SK-OV-3,"Western blot, measured: phospho-YAP","10 µM, 6 h, 2D culture, unit not given",baseline: total YAP,protein level,0.27 ± 0.03
Oc1nc2nonc2cc1Nc1ccccc1F,L6,,concentration not given,,activity,inactive
CNc1ncc2cc(-c3cc(NC(=O)NCCC(C)(C)C)c(F)cc3C)c(C)nc2n1,SK-MEL-239 (BRAF V600E),"ERK phosphorylation, Western blot",1 h,,IC75,0.092 µM
Cn1c(Nc2nc3ccc(C(F)(F)F)cc3s2)nc2cc(C(=O)NCCOCCO)ccc21,SH-SY5Y,"RNA-seq, measured: FLT1 mRNA","5 µM, 5 h",baseline: untreated cells,fold change,3.85
C=CC(=O)Nc1cc(Nc2nccc(-c3cn(C)c4ccccc34)n2)c(OC)cc1N(C)CCN(C)C,BT-16,"cell viability, MTT","10 µM, 72 h",,inhibition,92.9%
Nc1ncnc2c1ncn2[C@@H]1O[C@H](CO)[C@@H](O)[C@H]1O,unstimulated human T cells,,"10 µM, 72 h",higher = more viable cells,viability,76.7 a.u. and 84.4 a.u. and 83.3 a.u.
O=C(/C=C/C=C/C=C/C1CCCCC1)NC1=C[C@@](O)(/C=C/C=C/C=C/C(=O)NC2=C(O)CCC2=O)[C@@H]2O[C@@H]2C1=O,RD,"cell growth, CellTiter-Glo",78 h,,GI50,12.3 µM
CN(C)c1ccc(C(=C2C=CC(=[N+](C)C)C=C2)c2ccc(N(C)C)cc2)cc1,BT-16,"cell viability, MTT","10 µM, 72 h",,inhibition,92.9%

# Repeated from above:
SMILES,cell line,test,setting,scale,quantity,result
C#Cc1cccc(Nc2ncnc3cc(OC)c(OCCCCCCC(=O)NO)cc23)c1,BT-16,"cell viability, MTT","10 µM, 72 h",,inhibition,90.1%
COc1cnc2cccc(N3CCc4c(cc(Cn5ccnc5C)cc4-c4cn(C)nc4C(F)(F)F)C3=O)c2c1,MSTO-211H,"cell growth, inhibitor",120 h,,EC50,> 30 µM
C[C@H](Nc1ccc2c(c1)OCCn1cc(N3C(=O)OC[C@H]3C(F)F)nc1-2)C(N)=O,CAL-51,"cell growth, CellTiter-Glo",120 h,,Hill coefficient GR curve,0.684
